Published values of several laboratories.
Lines come from different studies, so protocols differ. ± marks the error that the study gave.

For `O=C(N[c-]1cccc1)OCc1ccc(B(O)O)cc1.[Fe+2].c1cc[cH-]c1`, the logP was 2.76 ± 0.23 (RP-TLC; MOPS/acetonitrile; pH 7.4).
`Cc1c(C)c(C)[c-](C)c1C.[C-]#[O+].[C-]#[O+].[C-]#[O+].[Cl-].[Cl-].[Cl-].[Ir+3].[Re+].c1cnc(-c2ncccn2)nc1` gave a logP of 0.47 (shake flask).
`[Cl-].[Cl-].[Ru+2].c1ccc2nc3c4cccnc4c4ncccc4c3nc2c1.c1ccncc1.c1ccncc1.c1ccncc1.c1ccncc1` has a logP of -1.09 ± 0.05 (n-octanol/water).
`CCC1=C(CC)C2=[N+]3C1=Cc1c(CC)c(CC)c4[n]1[Ir-3]31([Cl])([C]#[O+])[n]3c(c(CC)c(CC)c3=CC3=[N+]1C(=C4)C(CC)=C3CC)=C2` gave a logP of 2.38 (ICP-MS; n-octanol/saline).
`CN1C(=O)[C@@H](Cc2ccc(O)cc2)NC(=O)CNC(=O)[C@H](Cc2ccc3ccccc3c2)NC(=O)[C@H](CCCNC(=N)N)NC(=O)[C@H]1CCCNC(=O)c1ccc(CNC(=O)CN2CCN(CC(=O)O)CCN(CC(=O)O)CCN(CC(=O)O)CC2)cc1` [gallium-68 labelled] gave a logP of -2.9 (octanol/water).
`Brc1ccc2nc3c4ccc[n+]5c4c4c(ccc[n+]4[Ru-4]546([n+]5ccccc5-c5cccc[n+]54)[n+]4ccccc4-c4cccc[n+]46)c3nc2c1.[O-][Cl+3]([O-])([O-])[O-].[O-][Cl+3]([O-])([O-])[O-]` has a logP of -1.58 (octanol/water; room temperature).
`CCCC[P+](CCCC)(CCCC)CCCC.Cc1ccc(S(=O)(=O)[N-]C(=O)NN2CC3CCCC3C2)cc1` (centres unmarked) gave a logP of 1.36 ± 0.03 (shake-flask; n-octanol/water; 37 °C).
The logP of `CC1=C2[O][Ru-]([Cl])[O+]=C2C=CN1CCCN1C=CC2=[O+][Ru-]([Cl])[O]C2=C1C.Cc1ccc(C(C)C)cc1.Cc1ccc(C(C)C)cc1` is reported as -1.4 (shake flask, UV-vis; n-octanol/water; aqua complex).
`O=C(N[c-]1cccc1)OCc1ccc(C(=O)O)cc1.[Fe+2].c1cc[cH-]c1` gave a logP of 1.9 ± 0.04 (RP-TLC; MOPS/acetonitrile; pH 7.4).
With `Cc1c(C)c(C)[c-](C)c1C.O=C1c2cccc[n+]2[Ir]([Cl])[N]1CCCCCCCCCCCc1ccc2ccc3cccc4ccc1c2c34` the logP was 1.86 ± 0.19 (shake-flask; octanol/PBS).
With `COc1cc(OC)cc(C2=C3C(C)=C(I)C(C)=[N+]3[B-](F)(F)n3c(/C=C/c4c[nH]c5ccc([N+](=O)[O-])cc45)c(I)c(C)c32)c1` the logP was 1.5 (octanol/HEPES buffer; pH 7.4, room temperature).
`N[C@@H](CSC(F)(F)[18F])C(=O)O` has a logP of -2.75 (n-octanol/water).
`CCCCC[P+](c1ccc(C)cc1)(c1ccc(C)cc1)c1ccc(C)cc1` has a logP of 0.26 ± 0.02 (shake flask, HPLC; 1-octanol/water).
`CC(=O)Nc1ncc(CN2CC[C@H](Oc3cccc(F)n3)C[C@@H]2C)s1` has a logP of 3.05.
For `CC1=C2[O][Ru-]([Cl])[O+]=C2C=CN1CCCCCCCCCCCCN1C=CC2=[O+][Ru-]([Cl])[O]C2=C1C.Cc1ccc(C(C)C)cc1.Cc1ccc(C(C)C)cc1`, the logP was -0.58 (shake flask, UV-vis; n-octanol/water; aqua complex).
For `CN1C(=O)[C@@H](Cc2ccc(O)c(I)c2)NC(=O)CNC(=O)[C@H](Cc2ccc3ccccc3c2)NC(=O)[C@H](CCCNC(=N)N)NC(=O)[C@H]1CCCNC(=O)c1ccc(CNC(=O)CN2CCN(CC(=O)O)CCN(CC(=O)O)CCN(CC(=O)O)CC2)cc1` [lutetium-177 labelled], the logP was -1.76 (shake-flask method).
For `Cn1ccn(N=Cc2ccccc2SSc2ccccc2C=Nn2ccn(C)c2=S)c1=S`, the logP was 3.3 ± 0.2 (stir-flask, HPLC; octanol/water).
For `COc1cccc(O)c1C=NCCCN(C)CCN(C)CCCN=Cc1c(O)cccc1OC`, the logP was 2.56 ± 0.02 (1-octanol/saline; pH 7.4, 67Ga complex).
`CN[P+](c1ccccc1)(c1ccccc1)c1ccccc1` gave a logP of 0.527 (HPLC; octanol/PBS).
With `CC[P+](c1ccc(C)cc1)(c1ccc(C)cc1)c1ccc(C)cc1` the logP was -0.5 ± 0.05 (shake flask, HPLC; 1-octanol/water).
`CC[P+](CC)(CC)[Au-][S]c1ccc(OC)cc1` has a logP of 2.01 (n-octanol/water).
The logP of `CC1(C)OB(c2ccc(COC(=O)N[c-]3cccc3)cc2)OC1(C)C.[Fe+2].c1cc[cH-]c1` is reported as 5 ± 0.3 (RP-TLC; MOPS/acetonitrile; pH 7.4).
`CCCCC[P+](c1cc(C)cc(C)c1)(c1cc(C)cc(C)c1)c1cc(C)cc(C)c1` gave a logP of 0.9 ± 0.01 (shake flask, HPLC; 1-octanol/water).
With `CC[P+](N=P(c1ccccc1)(c1ccccc1)c1ccccc1)(c1ccccc1)c1ccccc1` the logP was 0.51 (HPLC; octanol/water; 100 µM).
`CC[P+](CC)(CC)[Au-][S][C@@H]1O[C@H](COC(C)=O)[C@@H](OC(C)=O)[C@H](OC(C)=O)[C@H]1NC(=O)C(Cl)(Cl)Cl` has a logP of 1.01 (n-octanol/water).
`CC1=C2[O][Ru-]([Cl])[O+]=C2C=CN1CCCCCCN1C=CC2=[O+][Ru-]([Cl])[O]C2=C1C.Cc1ccc(C(C)C)cc1.Cc1ccc(C(C)C)cc1` gave a logP of -1.36 (shake flask, ICP-MS; n-octanol/water; aqua complex).
`CC[P+](CC)(CC)[Au-][S][C@@H]1O[C@H](COC(C)=O)[C@@H](O[C@@H]2O[C@H](COC(C)=O)[C@H](OC(C)=O)[C@H](OC(C)=O)[C@H]2OC(C)=O)[C@H](OC(C)=O)[C@H]1OC(C)=O` has a logP of 1.04 (n-octanol/water).
The logP of `N=C(N)NCCC[C@@H]1NC(=O)[C@H](CCCCNC(=O)CC[C@H](NC(=O)CN2CCN(CC(=O)O)CCN(CC(=O)O)CCN(CC(=O)O)CC2)C(=O)NCCCC[C@@H]2NC(=O)[C@@H](Cc3ccccc3)NC(=O)[C@H](CC(=O)O)NC(=O)CNC(=O)[C@H](CCCNC(=N)N)NC2=O)NC(=O)[C@@H](Cc2ccccc2)NC(=O)[C@H](CC(=O)O)NC(=O)CNC1=O` [indium-111 labelled] is reported as -3.95 ± 0.05 (octanol/PBS; pH 7.4, room temperature).
`O=C(OCc1ccc(B(O)O)cc1)N(Cc1cccc(CN2CCCCC2)c1)[c-]1cccc1.[Fe+2].c1cc[cH-]c1` has a logP of 6.09 ± 0.03 (RP-TLC; MOPS/acetonitrile; pH 7.4).
`COc1cc(OC)cc(C2=C3C(C)=C(I)C(/C=C/c4cccs4)=[N+]3[B-](F)(F)n3c(/C=C/c4cccs4)c(I)c(C)c32)c1` gave a logP of 1.01 (octanol/HEPES buffer; pH 7.4, room temperature).
With `Cc1c(C)c(C)[c-](C)c1C.O=C1c2cccc[n+]2[Ir]([Cl])[N]1CCCCCCCCCC[P+](c1ccccc1)(c1ccccc1)c1ccc2ccc3cccc4ccc1c2c34.[Br-]` the logP was 1.21 ± 0.09 (shake-flask; octanol/PBS).
The logP of `COCCOCCOCCOCCOCCOCCOCCOCCOCCOCCOCCOCCNC(=O)CCc1ccc(N(c2ccc(CCC(=O)NCCOCCOCCOCCOCCOCCOCCOCCOCCOCCOCCOCCOC)cc2)c2ccc(-c3c4c(c(-c5ccc(N(c6ccc(CCC(=O)NCCOCCOCCOCCOCCOCCOCCOCCOCCOCCOCCOCCOC)cc6)c6ccc(CCC(=O)NCCOCCOCCOCCOCCOCCOCCOCCOCCOCCOCCOCCOC)cc6)cc5)c5nsnc35)N=S=N4)cc2)cc1` is reported as -1.47 (shake flask; n-octanol/water).
The logP of `N=C(N)NCCC[C@@H]1NC(=O)[C@H](CCCCNC(=O)CC[C@H](NC(=O)CC[C@H](NC(=O)CN2CCN(CC(=O)O)CCN(CC(=O)O)CCN(CC(=O)O)CC2)C(=O)N[C@@H](CCC(=O)NCCCC[C@@H]2NC(=O)[C@@H](Cc3ccccc3)NC(=O)[C@H](CC(=O)O)NC(=O)CNC(=O)[C@H](CCCNC(=N)N)NC2=O)C(=O)NCCCC[C@@H]2NC(=O)[C@@H](Cc3ccccc3)NC(=O)[C@H](CC(=O)O)NC(=O)CNC(=O)[C@H](CCCNC(=N)N)NC2=O)C(=O)NCCCC[C@@H]2NC(=O)[C@@H](Cc3ccccc3)NC(=O)[C@H](CC(=O)O)NC(=O)CNC(=O)[C@H](CCCNC(=N)N)NC2=O)NC(=O)[C@@H](Cc2ccccc2)NC(=O)[C@H](CC(=O)O)NC(=O)CNC1=O` [indium-111 labelled] is reported as -4.15 ± 0.07 (octanol/PBS; pH 7.4, room temperature).
`COc1cccc(C=NCCCN(C)CCN(C)CCCN=Cc2cccc(OC)c2O)c1O` gave a logP of 1.39 ± 0.01 (1-octanol/saline; pH 7.4, 67Ga complex).
`COc1cc(OC)cc(C2=C3C(C)=C(I)C(C)=[N+]3[B-](F)(F)n3c(/C=C/c4c[nH]c5ccccc45)c(I)c(C)c32)c1` gave a logP of 1.04 (octanol/HEPES buffer; pH 7.4, room temperature).
